Literature values, collected from citations in different studies.
Compare with care: the assays were run in different laboratories. Numbers after ± are the reported error.
Sequence of UniProt Q13163 (whole entry, looked up): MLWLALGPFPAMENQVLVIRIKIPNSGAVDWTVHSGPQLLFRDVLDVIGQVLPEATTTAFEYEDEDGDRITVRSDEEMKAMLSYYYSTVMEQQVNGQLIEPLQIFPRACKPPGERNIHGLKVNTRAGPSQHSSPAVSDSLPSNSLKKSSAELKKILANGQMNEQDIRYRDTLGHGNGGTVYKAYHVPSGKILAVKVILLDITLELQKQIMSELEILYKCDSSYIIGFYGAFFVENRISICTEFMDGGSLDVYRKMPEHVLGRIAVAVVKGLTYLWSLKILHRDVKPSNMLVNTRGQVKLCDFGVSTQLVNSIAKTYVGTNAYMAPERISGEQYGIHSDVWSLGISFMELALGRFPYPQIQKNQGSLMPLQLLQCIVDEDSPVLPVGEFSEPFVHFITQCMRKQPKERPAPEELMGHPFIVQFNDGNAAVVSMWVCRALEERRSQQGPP

O=C(c1cc(Cc2n[nH]c(=O)c3ccccc23)ccc1F)N1CCN(C(=O)C2CC2)CC1 — Cmax at steady state (human; oral, dose not given, tablet): 9200 ng/mL
Cn1c(Cn2ccc(C(F)(F)F)c(Oc3cc(Cl)cc(C#N)c3)c2=O)n[nH]c1=O — Cmax increase (human; dose not given, CYP3A4 inhibition, together with: ritonavir or ketoconazole): 20 to 30%
CNCc1cc(-c2ccccc2F)n(S(=O)(=O)c2cccnc2)c1 — Cmax (human; 20 mg, single dose, fasted): 16.3 ng/mL
C=CC(=O)N1CCC([C@@H]2CCNc3c(C(N)=O)c(-c4ccc(Oc5ccccc5)cc4)nn32)CC1 — Cmax (human patients; oral, 40 mg once daily, day 8): 79 ± 30 ng/mL
CO[C@]1(C(=O)N[C@@H](C)c2ccc(-n3cc(F)cn3)nc2)CC[C@H](c2nc(C)cc(Nc3cc(C)[nH]n3)n2)CC1 — Cmax increase (healthy human; dose not given, together with: itraconazole multiple doses; reference: compound alone): 84%
COc1cc2c(Oc3ccc4[nH]c(C)cc4c3F)ccnc2cc1OCC1(N)CC1 — Cmax steady state (adult human; 12 mg/day continuous): 40 to 80 ng/mL
CC(C)NC(=O)COc1cccc(-c2nc(Nc3ccc4[nH]ncc4c3)c3ccccc3n2)c1 — Cmax decrease (healthy human subjects; dose not given, together with: rifampin (strong CYP3A4 inducer)): 59%
Nc1cc(C(F)(F)F)c(-c2nc(N3CCOCC3)nc(N3CCOCC3)n2)cn1 — remaining activity (MAP2K5 (Homo sapiens, UniProt Q13163); enzyme activity; 10 µM; reference: untreated): 100%
Cc1nsc(-c2nnc3n2CCN(C(=O)c2ccc(F)cc2)[C@@H]3C)n1 — Cmax (human; oral, 45 mg single dose, fasted): 453 ng/mL
C[C@@H](Oc1ccc(S(C)(=O)=O)cc1C(=O)N1C[C@@H]2C[C@]2(c2cc(C(F)(F)F)on2)C1)C(F)(F)F — Cmax ratio (human; 25 mg single dose, observed geometric mean, together with: itraconazole; reference: with over without itraconazole): 1.16
COc1cc2nccc(Oc3ccc(NC(=O)C4(C(=O)Nc5ccc(F)cc5)CC4)cc3)c2cc1OC — Cmax increase (human; dose not given, high-fat breakfast; reference: fasted): 41%
O=C1[C@H](CC[C@H](O)c2ccc(F)cc2)[C@@H](c2ccc(O)cc2)N1c1ccc(F)cc1 — Cmax increase (human, serum; dose not given, together with: rifampin, 600 mg, single dose; reference: without rifampin): 2.85 fold
C[C@@H](Oc1cc(-c2cnn(C3CCNCC3)c2)cnc1N)c1c(Cl)ccc(F)c1Cl — Cmax steady state (human patients; dose not given): 315 ng/mL
COCCc1ccc(OCC(O)CNC(C)C)cc1 (stereo not drawn) — Cmax (human fasted; 100 mg multiple doses, day 5, mean): 36 ng/mL
COc1ccc2nc([S@@+]([O-])Cc3ncc(C)c(OC)c3C)[nH]c2c1 — Cmax (Japanese non-obese humans; intravenous bolus, 20 mg racemic omeprazole): 964 ng/mL

Some of these lines once more:
C[C@@H](Oc1ccc(S(C)(=O)=O)cc1C(=O)N1C[C@@H]2C[C@]2(c2cc(C(F)(F)F)on2)C1)C(F)(F)F — Cmax ratio (human; 25 mg single dose, observed geometric mean, together with: itraconazole; reference: with over without itraconazole): 1.16
COc1cc2nccc(Oc3ccc(NC(=O)C4(C(=O)Nc5ccc(F)cc5)CC4)cc3)c2cc1OC — Cmax increase (human; dose not given, high-fat breakfast; reference: fasted): 41%
